Results pooled from the literature.
Values joined by “and” are separate records of one study, mostly repeats; a detail may differ. ± gives the spread as reported.

| SMILES | target or system | test | conditions | scale | endpoint | value |
| --- | --- | --- | --- | --- | --- | --- |
| O=C(Cc1ccc(Br)cc1)Nc1nc2ccccc2n1Cc1ccc(Br)cc1 | MDA-MB-231-HRE-Luc | HIF reporter gene, inhibitor, HRE luciferase reporter | 10 µM, hypoxia | relative to: untreated | inhibition | > 50% |
| CCN1C(=O)C(C(C)=O)S/C1=N/N=C(\C)c1ccccn1 (stereo not shown) | HepG2 | cell growth or viability, SRB | 100 µg/mL, 48 h |  | inhibition | 59.3% |
| C#CCOc1ccc(/C=C/C(=O)N2CCC(Cc3ccccc3)CC2)cc1OC | BV-2 | NO release, inhibitor, Griess | 5 µM, LPS-stimulated |  | inhibition | 32.8% |
| O=C(Cc1ccc(C(F)(F)F)cc1)Nc1nc2ccccc2n1Cc1ccc(Br)cc1 | MDA-MB-231-HRE-Luc | HIF reporter gene, inhibitor, HRE luciferase reporter | 10 µM, hypoxia | relative to: untreated | inhibition | > 50% |
| CC(C)[C@H](NC(=O)c1ccc2ccccc2n1)C(=O)N[C@@H](CC(=O)O)C(=O)COc1c(F)cccc1F | glioblastoma cells | caspase-3/7 activation, CellEvent fluorescence | 100 µM, added: MED2 |  | inhibition | 25% |
| CC(C)(C)OC(=O)OCc1ccc(C=O)o1 | human sickle red blood cells | sickling | 2 mM, 2 h, 37 °C, hematocrit 20%, 4% oxygen |  | inhibition | 71.6 ± 0.1% |
| COc1ccc2c(c1)c(CC(=O)O)c(C)n2C(=O)c1ccc(Cl)cc1 | human erythrocytes | hypotonicity-induced hemolysis | 600 µg/mL, 1 h |  | inhibition | 95.3% |
| CC(C)OCc1ccc(C=O)o1 | human sickle red blood cells | sickling | 2 mM, 2 h, 37 °C, hematocrit 20%, 4% oxygen |  | inhibition | 22.5 ± 8.8% |
| Cc1cc(-c2ccccc2)c2c(n1)C1(CCCCC1)NC2=O | human erythrocytes | hypotonicity-induced hemolysis | 800 µg/mL, 1 h |  | inhibition | 85.4% |
| CCN(c1nc(N)c(C(=O)NC(=N)N)nc1Cl)C(C)C | MCEC mouse | transfection reporter gene | 25 µg/mL, 1 h | relative to: vehicle | inhibition | 75.1% |
| O=C1CCC(=O)C2(CCCCC2)N1 | human erythrocytes | hypotonicity-induced hemolysis | 400 µg/mL, 1 h |  | inhibition | 69% |
| COc1ccc(/C=C2/S/C(=N/N=C(\C)c3ccccn3)NC2=O)cc1OC | HepG2 | cell growth or viability, SRB | 100 µg/mL, 48 h |  | inhibition | 60.2% |
| OCc1ccccc1 | cysteine peptide Ac-RFAACAA-COOH | peptide depletion, DPRA RapidFire-MS/MS | 24 h, pH 7.5, room temperature, added: 5.0 µM cysteine peptide |  | IC50 | inactive |
| C/C(=N\NC(N)=S)c1ccccn1 | HepG2 | cell growth or viability, SRB | 100 µg/mL, 48 h |  | inhibition | 57.6% |
| Cc1ccc2oc(=O)ccc2c1 | cysteine peptide Ac-RFAACAA-COOH | peptide depletion, DPRA RapidFire-MS/MS | 24 h, pH 7.5, room temperature, added: 5.0 µM cysteine peptide |  | IC50 | inactive |
| O=C(Cc1ccc(Cl)cc1)Nc1nc2ccccc2n1Cc1ccc(Br)cc1 | MDA-MB-231-HRE-Luc | HIF reporter gene, inhibitor, HRE luciferase reporter | 10 µM, hypoxia | relative to: untreated | inhibition | > 50% |
| NC1=NC(=S)NC12CCCCC2 | human erythrocytes | hypotonicity-induced hemolysis | 400 µg/mL, 1 h |  | inhibition | 92.8% |
| COc1cc(/C=C/C(=O)N2CCC(Cc3ccccc3)CC2)ccc1OC1CCCCC1 | BV-2 | NO release, inhibitor, Griess | 5 µM, LPS-stimulated |  | inhibition | 38.1% |
| O=C1NC2(CCCCC2)c2[nH]c(=S)nc(-c3ccccc3)c21 | human erythrocytes | hypotonicity-induced hemolysis | 100 µg/mL, 1 h |  | inhibition | 67.6% |
| CCOCc1ccc(C=O)o1 | human sickle red blood cells | sickling | 2 mM, 2 h, 37 °C, hematocrit 20%, 4% oxygen |  | inhibition | 58.8% and > 54% |
| O=C1NC2(CCCCC2)c2nc3c(c(-c4ccccc4)c21)CCCC3 | human erythrocytes | hypotonicity-induced hemolysis | 800 µg/mL, 1 h |  | inhibition | 91.1% |
| C[C@@H](Oc1cc(-c2cnn(C3CCNCC3)c2)cnc1N)c1c(Cl)ccc(F)c1Cl | KARPAS-299 | cell growth or viability, MTT | 2 µg/mL |  | inhibition | 75.7% |

Excerpt of the above:
| SMILES | target or system | test | conditions | scale | endpoint | value |
| --- | --- | --- | --- | --- | --- | --- |
| C/C(=N\NC(N)=S)c1ccccn1 | HepG2 | cell growth or viability, SRB | 100 µg/mL, 48 h |  | inhibition | 57.6% |
| Cc1ccc2oc(=O)ccc2c1 | cysteine peptide Ac-RFAACAA-COOH | peptide depletion, DPRA RapidFire-MS/MS | 24 h, pH 7.5, room temperature, added: 5.0 µM cysteine peptide |  | IC50 | inactive |
